Results of several laboratories.
Every numbered part comes from another study and shows a few of its results, in no order. Substitutions count along the parent as printed.
Sequence of UniProt Q04771 (whole entry, looked up): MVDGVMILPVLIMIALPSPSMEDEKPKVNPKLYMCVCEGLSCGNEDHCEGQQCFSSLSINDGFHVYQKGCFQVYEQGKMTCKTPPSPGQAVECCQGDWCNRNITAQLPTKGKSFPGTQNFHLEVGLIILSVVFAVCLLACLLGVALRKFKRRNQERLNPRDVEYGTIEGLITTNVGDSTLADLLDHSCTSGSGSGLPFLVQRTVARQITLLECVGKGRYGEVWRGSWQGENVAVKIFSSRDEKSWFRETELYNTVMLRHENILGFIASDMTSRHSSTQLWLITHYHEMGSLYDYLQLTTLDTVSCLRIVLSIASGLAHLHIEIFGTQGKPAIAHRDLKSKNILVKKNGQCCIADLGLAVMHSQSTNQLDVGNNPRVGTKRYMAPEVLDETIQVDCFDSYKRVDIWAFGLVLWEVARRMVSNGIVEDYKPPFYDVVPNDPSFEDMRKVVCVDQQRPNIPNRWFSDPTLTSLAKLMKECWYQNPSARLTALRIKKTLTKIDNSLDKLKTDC

Series 1
Target: FOSB, bZIP domain (human)
Technique: DHFR protein complementation
Sample: yeast
Notes: single substitutions, most at no-binding floor
Relative to: wild-type JUN-FOS pair
Direction: higher = stronger binding
Starting sequence: JUN, bZIP domain (human); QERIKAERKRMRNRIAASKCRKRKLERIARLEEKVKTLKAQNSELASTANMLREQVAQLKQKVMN; partner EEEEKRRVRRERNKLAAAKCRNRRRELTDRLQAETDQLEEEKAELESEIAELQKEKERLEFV
Variant	binding fitness
E44Y	-0.371 natural log
L59H	-0.996 natural log
A40W	-0.337 natural log
T37M	0.308 natural log
K39D	-0.988 natural log
V35Q	-0.305 natural log
A40C	-0.249 natural log
N42R	-0.227 natural log

Series 2
Target: CCNE1, cyclin fold, Cln2 fusion (human)
Technique: yeast growth competition, sequencing
Sample: yeast
Notes: strong parent motif
Relative to: not given
Direction: higher = stronger binding
Starting sequence: E2F1 docking peptide (human); PPVKRRLDFETDH; partner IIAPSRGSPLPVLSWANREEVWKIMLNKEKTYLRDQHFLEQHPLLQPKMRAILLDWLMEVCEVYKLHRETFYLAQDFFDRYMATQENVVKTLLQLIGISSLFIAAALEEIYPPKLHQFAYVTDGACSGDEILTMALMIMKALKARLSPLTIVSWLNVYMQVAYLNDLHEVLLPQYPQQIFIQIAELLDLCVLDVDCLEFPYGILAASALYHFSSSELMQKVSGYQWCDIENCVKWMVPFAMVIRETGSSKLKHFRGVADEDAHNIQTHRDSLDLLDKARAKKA
Variant	normalised enrichment score
D12T	5.96
L7E	0.132
V3L	2.15
V3Y	4.77
D12C	6.47
P2S	6.51
R5A	0.374
V3K	0.614

Series 3
Target: RNA binding protein fox-1 homolog 2, RRM domain, GST-SBP tag (RBFOX2, Homo sapiens, UniProt O43251-10, residues 100-194)
Technique: RNA Bind-n-Seq
Form: RNA
Sample: in vitro
Tested at: 365 nM
Notes: natural RNA segment, single round, ends assumed
Relative to: no-protein control
Direction: higher = stronger binding
All sequences stand within: GGGAGUUCUACAGUCCGACGAUC … UGGAAUUCUCGGGUGCCAA
Residues (chain): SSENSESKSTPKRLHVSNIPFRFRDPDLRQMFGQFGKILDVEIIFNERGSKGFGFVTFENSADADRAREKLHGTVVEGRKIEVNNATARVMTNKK
Strand	RBNS enrichment (R)
UAUGUAAGAGUGAUAUAAAACCUACCUCUGAGGUCAUUUAAUAAUAAGCACAGACAUGUGGAAAGUGCCUGACACAAAGCAGGUGCUCAAUAAAAGAGAGCUAUUGAAGU	0.428
AUAUCCAUAGAUAUAGUACUUUGUCUUGUCAGGAGGUGGAAACCGAAAUAAAUUAUCUUUUAAAAAGAAGUCAGAUUAACUUCUUUUCAUGUAUCCGUGAGGACUUCACG	0.483
CGCCACAGCCCUUUUGUCUCUGCAAACUGCCUUCUUCGGAAAGAAGAAGGUGGGAGGAUGUGAAUUGUUAGUUUCUGAGUUUUACCAAAUAAAGUAGAAUAUAAGAAGAA	0.269
AAUGUAAUGAGUGAGCUAAUUGAUUUUUUAGACCAUAUUUGAAGAUGUGGAUGACUUACAAGAAACACAAAAGAAAGGUACUUAUAGAGUCUGGUUCUAAUAAUUGGUAC	0.741
GACAAGUAACAACUCAAAUAAUUCCAUAUUGUUUGAGGAAGAGGCCAUAAUCCUUCUGAAUUGUUGGCACUAAGUAAUGGGAUUUGGCCCAGUAAGUAUGACGGUCGUGU	0.293
CGCUGGGCAUCUCUCCUCUGUGGCUCUAGGACAUCUGUCCAGGAGGCUGGGCGGAGGUGGGCAGGAUGUGAGAGGUGGGGAGUACUGGCUGUGCGUGGCAGGACAGAAGC	0.746
UGUGCAUAUUUGAAUUUUUCAUGCAGUUUUUCUAGAGCAAUAAUCAGUGGUGCUUUUGUACCUAGGUUUUAUGUGAUUUUAAUGAAACAUGGAUAGUUGUGGCCACCUGC	0.289
UAAUGUCAUGUUGCUUGUCGCUUUCUCAGUGUGUGUGUGUGGUCCAUGCCCACUGCUGGUGCCAGGGUGGGUGUCCAUGUGCACCCGGCCUGGAUGCCAGCUGUGUCCUU	0.336

Single results of other studies
SMILES	target	test	setting	scale	measurement	result
Cc1cccc(-c2[nH]c(C(C)(C)C)nc2-c2ccc3c(c2)OCO3)n1	Activin receptor type-1 (ACVR1, Homo sapiens, UniProt Q04771)	enzyme activity, inhibitor	0.5 µM	relative to: control	remaining activity	96.4%

Some of these lines once more (series 3):
Strand	RBNS enrichment (R)
UGUGCAUAUUUGAAUUUUUCAUGCAGUUUUUCUAGAGCAAUAAUCAGUGGUGCUUUUGUACCUAGGUUUUAUGUGAUUUUAAUGAAACAUGGAUAGUUGUGGCCACCUGC	0.289
CGCCACAGCCCUUUUGUCUCUGCAAACUGCCUUCUUCGGAAAGAAGAAGGUGGGAGGAUGUGAAUUGUUAGUUUCUGAGUUUUACCAAAUAAAGUAGAAUAUAAGAAGAA	0.269
